Results of several laboratories.
Lines come from different studies, so protocols differ.
CDPK1: Calcium-dependent protein kinase 1 (CDPK1, Plasmodium falciparum, UniProt P62344)
Chain of UniProt P62344 (whole entry, looked up): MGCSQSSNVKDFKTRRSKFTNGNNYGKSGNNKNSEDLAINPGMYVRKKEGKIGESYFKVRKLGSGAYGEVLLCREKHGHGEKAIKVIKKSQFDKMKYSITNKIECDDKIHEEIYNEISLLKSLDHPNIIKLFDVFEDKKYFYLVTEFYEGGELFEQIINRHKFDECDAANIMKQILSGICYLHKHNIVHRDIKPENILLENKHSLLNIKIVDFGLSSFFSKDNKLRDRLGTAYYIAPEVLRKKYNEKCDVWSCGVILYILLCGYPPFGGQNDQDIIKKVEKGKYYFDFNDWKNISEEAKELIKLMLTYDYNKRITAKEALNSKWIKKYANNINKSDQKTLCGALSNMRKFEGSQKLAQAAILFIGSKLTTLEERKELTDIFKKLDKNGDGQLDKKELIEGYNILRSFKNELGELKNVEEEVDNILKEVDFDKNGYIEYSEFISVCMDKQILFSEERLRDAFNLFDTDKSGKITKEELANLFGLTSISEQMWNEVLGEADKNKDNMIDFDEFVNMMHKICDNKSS
pknB: Serine/threonine-protein kinase PknB (pknB, Mycobacterium tuberculosis, UniProt P9WI81)
Chain of UniProt P9WI81 (whole entry, looked up): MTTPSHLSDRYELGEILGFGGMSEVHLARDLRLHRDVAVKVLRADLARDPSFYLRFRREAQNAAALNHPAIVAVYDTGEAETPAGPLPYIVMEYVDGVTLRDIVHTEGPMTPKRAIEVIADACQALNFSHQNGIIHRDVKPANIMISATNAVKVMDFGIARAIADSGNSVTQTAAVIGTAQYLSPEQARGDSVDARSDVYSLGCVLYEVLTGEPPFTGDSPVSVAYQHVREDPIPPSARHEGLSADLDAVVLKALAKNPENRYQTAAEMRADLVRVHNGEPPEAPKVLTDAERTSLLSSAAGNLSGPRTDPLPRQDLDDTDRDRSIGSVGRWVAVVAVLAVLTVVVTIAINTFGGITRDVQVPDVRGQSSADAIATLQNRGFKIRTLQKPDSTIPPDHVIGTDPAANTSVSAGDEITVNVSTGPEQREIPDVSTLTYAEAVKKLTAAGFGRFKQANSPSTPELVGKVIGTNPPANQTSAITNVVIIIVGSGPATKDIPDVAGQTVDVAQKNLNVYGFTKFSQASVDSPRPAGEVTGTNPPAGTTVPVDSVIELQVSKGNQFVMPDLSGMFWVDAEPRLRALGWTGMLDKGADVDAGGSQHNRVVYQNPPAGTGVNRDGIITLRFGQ
Chain of UniProt Q9UQM7 (whole entry, looked up): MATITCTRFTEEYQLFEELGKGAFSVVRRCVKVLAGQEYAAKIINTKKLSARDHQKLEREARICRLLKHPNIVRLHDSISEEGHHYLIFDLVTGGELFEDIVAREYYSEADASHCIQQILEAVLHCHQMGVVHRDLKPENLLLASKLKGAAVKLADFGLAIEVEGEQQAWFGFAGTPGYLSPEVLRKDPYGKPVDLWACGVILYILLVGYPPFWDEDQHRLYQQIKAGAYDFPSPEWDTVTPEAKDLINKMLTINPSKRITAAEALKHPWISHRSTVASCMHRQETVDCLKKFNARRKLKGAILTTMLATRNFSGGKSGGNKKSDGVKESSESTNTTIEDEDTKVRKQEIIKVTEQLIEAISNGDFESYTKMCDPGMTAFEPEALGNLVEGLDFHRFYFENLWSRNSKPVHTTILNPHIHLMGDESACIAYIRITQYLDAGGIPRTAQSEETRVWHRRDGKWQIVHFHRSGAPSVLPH
Chain of UniProt O75417 (whole entry, unmodified, looked up): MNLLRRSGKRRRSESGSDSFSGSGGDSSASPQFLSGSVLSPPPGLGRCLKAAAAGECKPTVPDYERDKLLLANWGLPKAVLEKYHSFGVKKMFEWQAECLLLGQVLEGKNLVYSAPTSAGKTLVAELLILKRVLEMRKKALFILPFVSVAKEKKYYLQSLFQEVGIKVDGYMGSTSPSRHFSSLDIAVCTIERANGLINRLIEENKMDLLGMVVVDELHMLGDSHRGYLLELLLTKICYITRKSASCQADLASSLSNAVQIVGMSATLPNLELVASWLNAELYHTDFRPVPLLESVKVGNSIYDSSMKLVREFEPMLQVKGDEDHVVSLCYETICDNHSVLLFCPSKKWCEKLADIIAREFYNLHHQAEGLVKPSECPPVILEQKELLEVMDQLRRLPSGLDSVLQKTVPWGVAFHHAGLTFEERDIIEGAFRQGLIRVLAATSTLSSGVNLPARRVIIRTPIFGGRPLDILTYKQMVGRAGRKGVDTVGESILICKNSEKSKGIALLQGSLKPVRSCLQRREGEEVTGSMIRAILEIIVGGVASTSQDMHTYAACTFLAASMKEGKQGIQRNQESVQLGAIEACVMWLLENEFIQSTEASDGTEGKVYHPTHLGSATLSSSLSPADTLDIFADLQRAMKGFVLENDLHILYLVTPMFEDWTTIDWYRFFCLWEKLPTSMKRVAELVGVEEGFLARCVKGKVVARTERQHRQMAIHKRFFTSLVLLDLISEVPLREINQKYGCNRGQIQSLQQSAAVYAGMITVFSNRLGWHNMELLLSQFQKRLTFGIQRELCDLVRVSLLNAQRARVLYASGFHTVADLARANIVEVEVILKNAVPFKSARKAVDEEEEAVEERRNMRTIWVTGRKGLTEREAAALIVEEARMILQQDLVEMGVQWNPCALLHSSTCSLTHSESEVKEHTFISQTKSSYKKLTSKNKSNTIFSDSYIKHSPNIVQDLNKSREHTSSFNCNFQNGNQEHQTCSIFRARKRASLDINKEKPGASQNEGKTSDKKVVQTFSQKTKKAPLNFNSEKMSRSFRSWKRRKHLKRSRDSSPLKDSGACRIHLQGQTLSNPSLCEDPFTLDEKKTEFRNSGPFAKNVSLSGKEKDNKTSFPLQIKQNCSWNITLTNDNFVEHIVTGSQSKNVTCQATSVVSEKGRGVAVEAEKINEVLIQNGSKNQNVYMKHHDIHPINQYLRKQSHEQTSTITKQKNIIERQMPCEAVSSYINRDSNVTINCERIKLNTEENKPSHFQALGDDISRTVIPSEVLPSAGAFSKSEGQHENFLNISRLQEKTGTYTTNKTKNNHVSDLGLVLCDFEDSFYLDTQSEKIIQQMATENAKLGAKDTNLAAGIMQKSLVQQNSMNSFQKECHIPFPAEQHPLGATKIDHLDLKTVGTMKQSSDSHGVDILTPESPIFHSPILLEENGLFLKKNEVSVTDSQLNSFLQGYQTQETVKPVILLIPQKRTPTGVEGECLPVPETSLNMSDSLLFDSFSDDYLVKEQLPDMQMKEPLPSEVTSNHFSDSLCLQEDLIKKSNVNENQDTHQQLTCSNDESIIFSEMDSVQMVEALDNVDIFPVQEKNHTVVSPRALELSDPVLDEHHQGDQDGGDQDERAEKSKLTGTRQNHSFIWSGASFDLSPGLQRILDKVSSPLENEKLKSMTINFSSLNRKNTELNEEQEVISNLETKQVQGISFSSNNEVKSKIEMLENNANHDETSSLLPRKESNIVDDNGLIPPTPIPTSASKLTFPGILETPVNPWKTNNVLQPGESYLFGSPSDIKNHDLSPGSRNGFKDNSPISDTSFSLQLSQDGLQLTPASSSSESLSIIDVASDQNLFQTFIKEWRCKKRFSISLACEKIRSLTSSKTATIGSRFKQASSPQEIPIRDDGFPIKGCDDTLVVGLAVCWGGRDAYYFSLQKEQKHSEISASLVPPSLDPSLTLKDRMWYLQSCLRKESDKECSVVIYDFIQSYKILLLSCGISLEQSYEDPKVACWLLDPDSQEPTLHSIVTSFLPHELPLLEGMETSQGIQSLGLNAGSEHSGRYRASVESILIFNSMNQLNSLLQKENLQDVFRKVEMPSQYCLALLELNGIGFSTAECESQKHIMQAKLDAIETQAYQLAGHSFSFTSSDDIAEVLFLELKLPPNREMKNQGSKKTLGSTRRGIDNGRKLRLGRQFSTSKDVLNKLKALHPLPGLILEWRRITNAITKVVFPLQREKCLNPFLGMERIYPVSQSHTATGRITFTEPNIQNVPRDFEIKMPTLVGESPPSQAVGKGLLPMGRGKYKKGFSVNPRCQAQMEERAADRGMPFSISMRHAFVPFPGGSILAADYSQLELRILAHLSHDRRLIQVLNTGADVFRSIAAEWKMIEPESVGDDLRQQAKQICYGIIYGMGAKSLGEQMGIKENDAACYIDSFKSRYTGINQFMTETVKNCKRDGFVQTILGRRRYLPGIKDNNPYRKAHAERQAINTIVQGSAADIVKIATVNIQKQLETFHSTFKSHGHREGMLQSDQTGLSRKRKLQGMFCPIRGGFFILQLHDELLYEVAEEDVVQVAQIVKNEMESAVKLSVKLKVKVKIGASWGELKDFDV
Chain of UniProt P08588 (whole entry, looked up): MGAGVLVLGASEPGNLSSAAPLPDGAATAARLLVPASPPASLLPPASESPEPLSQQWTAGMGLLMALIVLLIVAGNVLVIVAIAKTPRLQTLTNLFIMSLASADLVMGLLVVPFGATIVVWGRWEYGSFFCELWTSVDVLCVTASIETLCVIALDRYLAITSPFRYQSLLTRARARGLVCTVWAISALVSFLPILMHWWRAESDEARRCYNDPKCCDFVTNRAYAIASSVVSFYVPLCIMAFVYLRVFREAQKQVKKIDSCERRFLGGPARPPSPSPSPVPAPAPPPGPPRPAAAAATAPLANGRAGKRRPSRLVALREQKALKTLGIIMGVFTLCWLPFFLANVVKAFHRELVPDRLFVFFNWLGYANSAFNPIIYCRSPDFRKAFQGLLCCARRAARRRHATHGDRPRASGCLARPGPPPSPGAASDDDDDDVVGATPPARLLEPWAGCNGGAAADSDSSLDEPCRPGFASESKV

| Structure (SMILES) | target or system | assay | setting | how to read | quantity | value |
| --- | --- | --- | --- | --- | --- | --- |
| O=C(NS(=O)(=O)c1ccc(NCC2CCOCC2)c([N+](=O)[O-])c1)c1ccc(N2CCN(Cc3ccc(C(F)(F)F)cc3-c3ccc(Cl)cc3)CC2)cc1Oc1cnc2[nH]ccc2c1 | CDPK1 | cell-free assay, competition with immobilised ligand | 1 µM |  | remaining binding | 82% |
| C[C@]12C[C@H]3S[C@H]3C[C@@H]1CC[C@@H]1[C@@H]2CC[C@]2(C)[C@@H](O)CC[C@@H]12 | DNA polymerase theta, ATPase domain (POLQ, Homo sapiens, UniProt O75417) | enzyme activity, inhibitor | 77 µM | baseline: untreated | remaining activity | 98.5% |
| CN(c1ccnc(CNc2nc(Nc3ccc4c(c3)CC(=O)N4)ncc2C(F)(F)F)n1)S(C)(=O)=O | CDPK1 | cell-free assay, competition with immobilised ligand | 1 µM |  | remaining binding | 84% |
| CC[C@H]1CN2CCc3cc(OC)c(OC)cc3[C@@H]2C[C@@H]1C[C@H]1NCCc2cc(O)c(OC)cc21 | Calcium/calmodulin-dependent protein kinase type II subunit alpha (CAMK2A, Homo sapiens, UniProt Q9UQM7) | enzyme activity, inhibitor | 10 µM |  | inhibition | -17% |
| CC(=O)N1CCC(c2ccc(C(=O)NC(=N)N)cc2C(F)(F)F)CC1 | pknB | cell-free assay, competition with immobilised ligand | 1 µM |  | remaining binding | 100% |
| C1=C(c2ccccc2)CCN(Cc2nc3ccccc3[nH]2)C1 | Beta-1 adrenergic receptor (ADRB1, Homo sapiens, UniProt P08588) | antagonist |  |  | IC50 | ≥ 100 µM |
| O=C(O)c1cc(-c2ccc(C3CCNCC3)cc2)c2ccc(-c3ccc(C(F)(F)F)cc3)cc2c1 | pknB | cell-free assay, competition with immobilised ligand | 1 µM |  | remaining binding | 100% |
| c1cncc([C@@H]2CCCN2)c1 | Sarcocystis neurona | parasite growth | 10 µM, 96 h |  | inhibition | -6.9% |

Some of these lines once more:
| Structure (SMILES) | target or system | assay | setting | how to read | quantity | value |
| --- | --- | --- | --- | --- | --- | --- |
| c1cncc([C@@H]2CCCN2)c1 | Sarcocystis neurona | parasite growth | 10 µM, 96 h |  | inhibition | -6.9% |
